Measurements from different studies.
Every numbered part comes from another study and shows a few of its results, in no order. Several values in a cell are separate wells, animals, samples, runs or records.
Chain of UniProt P42336 (whole entry, unmodified, looked up): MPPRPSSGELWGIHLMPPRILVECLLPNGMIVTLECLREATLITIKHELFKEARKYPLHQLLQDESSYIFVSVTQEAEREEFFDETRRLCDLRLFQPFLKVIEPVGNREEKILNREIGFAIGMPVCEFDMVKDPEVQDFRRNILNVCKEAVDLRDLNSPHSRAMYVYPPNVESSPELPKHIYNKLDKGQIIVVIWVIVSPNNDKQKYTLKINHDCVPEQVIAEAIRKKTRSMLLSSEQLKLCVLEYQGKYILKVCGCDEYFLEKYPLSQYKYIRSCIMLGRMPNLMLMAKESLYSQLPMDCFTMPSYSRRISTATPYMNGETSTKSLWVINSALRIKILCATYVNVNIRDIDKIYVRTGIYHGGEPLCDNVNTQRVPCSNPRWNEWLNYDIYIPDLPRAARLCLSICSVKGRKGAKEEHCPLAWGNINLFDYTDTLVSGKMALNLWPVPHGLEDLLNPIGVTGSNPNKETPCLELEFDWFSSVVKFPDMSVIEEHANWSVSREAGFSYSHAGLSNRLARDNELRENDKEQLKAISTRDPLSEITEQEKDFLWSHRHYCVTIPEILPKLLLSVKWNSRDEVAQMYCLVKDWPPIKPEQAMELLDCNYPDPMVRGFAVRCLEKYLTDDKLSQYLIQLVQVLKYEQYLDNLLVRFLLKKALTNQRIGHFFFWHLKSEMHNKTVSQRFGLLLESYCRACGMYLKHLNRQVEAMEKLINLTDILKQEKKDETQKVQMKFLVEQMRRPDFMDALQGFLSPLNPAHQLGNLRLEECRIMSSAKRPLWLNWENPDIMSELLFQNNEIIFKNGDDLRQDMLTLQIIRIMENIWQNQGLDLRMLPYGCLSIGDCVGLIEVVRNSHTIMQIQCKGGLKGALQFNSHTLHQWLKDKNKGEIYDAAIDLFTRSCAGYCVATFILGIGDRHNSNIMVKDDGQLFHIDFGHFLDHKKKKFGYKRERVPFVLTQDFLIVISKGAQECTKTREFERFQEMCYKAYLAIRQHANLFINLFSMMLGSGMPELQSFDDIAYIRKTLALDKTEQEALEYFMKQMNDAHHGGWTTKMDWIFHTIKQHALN
Chain of UniProt Q9UIK4 (whole entry, looked up): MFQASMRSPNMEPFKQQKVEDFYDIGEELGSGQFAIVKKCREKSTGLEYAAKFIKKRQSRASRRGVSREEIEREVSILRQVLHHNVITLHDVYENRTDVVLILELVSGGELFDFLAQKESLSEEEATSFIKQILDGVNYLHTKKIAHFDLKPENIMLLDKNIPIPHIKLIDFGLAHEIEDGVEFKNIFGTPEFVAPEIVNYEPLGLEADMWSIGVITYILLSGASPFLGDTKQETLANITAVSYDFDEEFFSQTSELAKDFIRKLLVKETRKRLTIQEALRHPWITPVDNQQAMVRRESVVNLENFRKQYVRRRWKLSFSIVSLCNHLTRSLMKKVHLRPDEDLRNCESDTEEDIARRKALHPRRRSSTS
Chain of UniProt P11802 (whole entry, looked up): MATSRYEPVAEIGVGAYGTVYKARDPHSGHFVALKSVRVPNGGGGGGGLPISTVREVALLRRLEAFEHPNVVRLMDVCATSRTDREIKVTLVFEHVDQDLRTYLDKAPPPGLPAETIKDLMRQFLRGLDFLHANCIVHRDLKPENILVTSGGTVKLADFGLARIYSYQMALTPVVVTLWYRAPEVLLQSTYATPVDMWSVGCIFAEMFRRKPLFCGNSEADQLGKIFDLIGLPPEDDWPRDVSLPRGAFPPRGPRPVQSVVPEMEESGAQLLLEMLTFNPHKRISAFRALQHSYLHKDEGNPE
Chain of UniProt O43683 (whole entry, looked up): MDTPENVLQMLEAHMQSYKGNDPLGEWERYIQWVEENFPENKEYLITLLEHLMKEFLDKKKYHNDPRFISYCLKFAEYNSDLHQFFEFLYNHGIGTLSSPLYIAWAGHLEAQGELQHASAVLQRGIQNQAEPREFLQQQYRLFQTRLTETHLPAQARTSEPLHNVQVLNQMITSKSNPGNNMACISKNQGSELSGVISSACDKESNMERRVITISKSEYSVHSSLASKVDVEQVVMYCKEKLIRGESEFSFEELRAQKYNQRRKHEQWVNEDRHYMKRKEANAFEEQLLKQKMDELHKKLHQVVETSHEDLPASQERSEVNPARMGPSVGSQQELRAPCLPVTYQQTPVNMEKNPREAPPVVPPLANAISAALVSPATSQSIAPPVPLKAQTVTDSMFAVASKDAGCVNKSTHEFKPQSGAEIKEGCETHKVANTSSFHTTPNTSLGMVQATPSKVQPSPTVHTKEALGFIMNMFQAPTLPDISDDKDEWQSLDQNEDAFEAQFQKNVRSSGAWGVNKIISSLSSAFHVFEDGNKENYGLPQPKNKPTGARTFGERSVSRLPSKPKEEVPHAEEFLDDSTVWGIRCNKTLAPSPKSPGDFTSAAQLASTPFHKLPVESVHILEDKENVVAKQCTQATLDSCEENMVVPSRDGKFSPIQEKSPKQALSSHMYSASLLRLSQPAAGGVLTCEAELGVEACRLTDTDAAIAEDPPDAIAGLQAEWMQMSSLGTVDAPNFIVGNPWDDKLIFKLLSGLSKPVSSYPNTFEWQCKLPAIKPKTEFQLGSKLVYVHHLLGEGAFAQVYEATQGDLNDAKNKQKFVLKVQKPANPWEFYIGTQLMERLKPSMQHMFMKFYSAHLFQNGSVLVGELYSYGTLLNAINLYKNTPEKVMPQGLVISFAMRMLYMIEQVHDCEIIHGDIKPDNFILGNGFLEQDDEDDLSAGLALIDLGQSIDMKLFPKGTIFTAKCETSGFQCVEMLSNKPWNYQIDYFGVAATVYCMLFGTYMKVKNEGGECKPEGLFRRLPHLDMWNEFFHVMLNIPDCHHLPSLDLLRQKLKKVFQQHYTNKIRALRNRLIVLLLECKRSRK
Chain of UniProt Q00535 (whole entry, looked up): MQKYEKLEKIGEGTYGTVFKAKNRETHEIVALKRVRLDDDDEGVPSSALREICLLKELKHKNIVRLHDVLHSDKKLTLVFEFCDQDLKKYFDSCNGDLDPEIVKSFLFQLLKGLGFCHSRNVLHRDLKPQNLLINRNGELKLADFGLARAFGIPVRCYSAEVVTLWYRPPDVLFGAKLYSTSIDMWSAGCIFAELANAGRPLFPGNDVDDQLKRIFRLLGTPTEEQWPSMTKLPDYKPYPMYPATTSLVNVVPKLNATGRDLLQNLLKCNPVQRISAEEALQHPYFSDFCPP
Chain of UniProt P11309 (whole entry, looked up): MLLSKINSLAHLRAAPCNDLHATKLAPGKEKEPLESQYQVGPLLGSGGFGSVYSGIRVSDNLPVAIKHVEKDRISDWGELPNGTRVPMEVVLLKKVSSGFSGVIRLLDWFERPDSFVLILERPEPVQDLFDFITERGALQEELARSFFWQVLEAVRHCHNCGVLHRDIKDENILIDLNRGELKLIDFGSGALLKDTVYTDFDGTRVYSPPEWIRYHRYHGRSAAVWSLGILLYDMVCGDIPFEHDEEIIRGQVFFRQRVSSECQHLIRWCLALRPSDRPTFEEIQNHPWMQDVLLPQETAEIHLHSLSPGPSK

Block 1
Target: Calcium/calmodulin-dependent protein kinase type II subunit alpha (CAMK2A, Homo sapiens, UniProt Q9UQM7)
Chain of UniProt Q9UQM7 (whole entry, looked up): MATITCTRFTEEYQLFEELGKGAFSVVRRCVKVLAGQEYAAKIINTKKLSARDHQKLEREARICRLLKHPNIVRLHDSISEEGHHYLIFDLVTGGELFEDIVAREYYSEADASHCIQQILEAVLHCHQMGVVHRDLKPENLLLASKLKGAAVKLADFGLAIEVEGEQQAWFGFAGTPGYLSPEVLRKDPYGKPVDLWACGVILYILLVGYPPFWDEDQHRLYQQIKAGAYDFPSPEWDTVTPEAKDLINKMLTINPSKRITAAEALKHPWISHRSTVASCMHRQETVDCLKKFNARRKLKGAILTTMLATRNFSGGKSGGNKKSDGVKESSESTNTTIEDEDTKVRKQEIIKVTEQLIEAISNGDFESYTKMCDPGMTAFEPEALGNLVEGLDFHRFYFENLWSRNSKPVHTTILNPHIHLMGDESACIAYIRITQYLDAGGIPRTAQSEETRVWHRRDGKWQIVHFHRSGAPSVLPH
Observed: enzyme activity
Action: inhibitor
Concentration: 10 µM
Measurement: inhibition
CC(C)(C)[C@@H]1NC(=O)O[C@@H]2CCC[C@H]2OC/C=C/C(F)(F)c2nc3ccccc3nc2O[C@@H]2C[C@@H](C(=O)N[C@]3(C(=O)NS(=O)(=O)C4(C)CC4)C[C@H]3C(F)F)N(C2)C1=O: -9%
Cc1ccc(C(N)=O)cn1: -12%
OC[C@H]1O[C@H](OC[C@H]2O[C@H](OC[C@H]3O[C@H](O[C@]4(CO)O[C@H](CO)[C@@H](O)[C@@H]4O)[C@H](O)[C@@H](O)[C@@H]3O)[C@H](O)[C@@H](O)[C@H]2O)[C@H](O)[C@@H](O)[C@H]1O: -32%
CCCCCC/C=C\CCCCCCCCCCCC(=O)O: -4%
O=C1OCCN1/N=C/c1ccc([N+](=O)[O-])o1: -5%
C[N+](C)(C)CCOP(=O)([O-])OC[C@H](O)CO: 1%
CC(N)[C@]12C[C@H]3C[C@H](C[C@H](C3)C1)C2 (stereo partly shown): -14%
OC[C@H]1O[C@@H](Oc2cc3c(O)cc(O)cc3[o+]c2-c2ccc(O)c(O)c2)[C@H](O)[C@@H](O)[C@H]1O: -15%
CO[C@H]1O[C@@H]2O[C@@]3(C)CC[C@H]4[C@H](C)CC[C@@H]([C@H]1C)[C@@]24OO3: 3%
O=C(O)c1cccc(O)c1O: -15%
NC[C@@H]1O[C@H](O[C@H]2[C@@H](O)[C@H](O[C@@H]3[C@@H](O)[C@H](N)C[C@H](N)[C@H]3O[C@H]3O[C@H](CN)[C@@H](O)[C@H](O)[C@H]3N)O[C@@H]2CO)[C@H](N)[C@@H](O)[C@@H]1O: -0.11% and 0.36%
CC1=CCC(C(C)C)=CC1: -6%
CC#CCC(C)[C@H](O)/C=C/[C@@H]1[C@H]2C/C(=C/CCCC(=O)O)C[C@H]2C[C@H]1O (stereo partly shown): 1%
CCN(CC)CCOC(=O)c1ccc(N)cc1Cl: 8%
O=c1ccn([C@H]2C[C@H](O)[C@@H](CO)O2)c(=O)[nH]1: 46%
O=C(O)Cc1ccc(O)cc1: -10%

Block 2
Target: Ephrin type-B receptor 2 (EPHB2, Homo sapiens, UniProt P29323)
Chain of UniProt P29323 (whole entry, looked up): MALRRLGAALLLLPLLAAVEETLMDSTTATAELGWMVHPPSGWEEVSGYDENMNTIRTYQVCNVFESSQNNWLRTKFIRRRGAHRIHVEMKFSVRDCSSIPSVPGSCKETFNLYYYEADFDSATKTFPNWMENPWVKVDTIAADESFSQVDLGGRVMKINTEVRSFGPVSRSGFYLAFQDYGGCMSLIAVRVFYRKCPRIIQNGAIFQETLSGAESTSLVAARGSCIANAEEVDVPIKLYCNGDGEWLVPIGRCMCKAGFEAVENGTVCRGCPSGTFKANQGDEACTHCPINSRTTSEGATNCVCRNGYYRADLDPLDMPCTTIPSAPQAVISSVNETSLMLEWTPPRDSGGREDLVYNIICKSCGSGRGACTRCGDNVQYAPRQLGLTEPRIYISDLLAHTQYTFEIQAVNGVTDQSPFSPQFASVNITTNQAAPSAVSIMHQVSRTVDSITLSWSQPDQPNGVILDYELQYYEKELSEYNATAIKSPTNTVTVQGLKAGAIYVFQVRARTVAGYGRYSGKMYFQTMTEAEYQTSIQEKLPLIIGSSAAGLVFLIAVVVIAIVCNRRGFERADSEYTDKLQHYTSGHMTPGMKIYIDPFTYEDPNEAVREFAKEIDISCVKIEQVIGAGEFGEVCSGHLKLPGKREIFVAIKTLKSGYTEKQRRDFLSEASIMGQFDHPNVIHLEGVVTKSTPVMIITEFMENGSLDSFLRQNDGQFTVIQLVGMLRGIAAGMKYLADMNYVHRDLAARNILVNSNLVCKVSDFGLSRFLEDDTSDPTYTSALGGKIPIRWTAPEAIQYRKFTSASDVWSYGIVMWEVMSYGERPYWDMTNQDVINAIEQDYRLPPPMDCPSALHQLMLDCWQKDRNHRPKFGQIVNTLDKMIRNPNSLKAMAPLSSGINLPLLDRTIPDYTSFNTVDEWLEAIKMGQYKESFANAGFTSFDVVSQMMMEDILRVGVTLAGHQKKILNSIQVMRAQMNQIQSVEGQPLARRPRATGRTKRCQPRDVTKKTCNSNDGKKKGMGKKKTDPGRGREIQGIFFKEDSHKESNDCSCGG
Observed: enzyme activity
Action: inhibitor
Concentration: 0.5 µM
Relative to: control
Measurement: remaining activity
N#CC(c1ccnc(NCCc2cccnc2)n1)c1nc2ccccc2s1 (stereo not shown): 112%
CCCCc1c(-c2ccc(O)cc2)[nH]c2nccnc12: 92.3%
COc1cc2c(N3CCN(C(=O)Nc4ccc(OC(C)C)cc4)CC3)ncnc2cc1OCCCN1CCCCC1: 97.6%
O=C(c1ccccc1)c1ccc(N2CCOCC2)cc1O: 94.9%
c1cc(-c2cnn3cc(-c4ccc(OCCN5CCCCC5)cc4)cnc23)ccn1: 33.6%
CCN(CC)CCCCN1c2ccccc2Oc2ccc(Cl)cc21: 107%
O=c1c(-c2ccc(F)cc2)c(-c2ccncc2)[nH]n1-c1ccc(Cl)cc1: 101%
O=C1c2ccccc2-c2nc3nnnn3nc21: 86.1%
CC(C)N(CCC(=O)c1ccc2ccccc2c1)Cc1ccccc1: 102%
NC(=O)c1cccc(-c2cc(Nc3ccc(OC(F)(F)F)cc3)ncn2)c1: 102%
CC(C)n1cnc2c(Nc3cccc(Cl)c3)nc(NCCO)nc21: 89.8%
CC(C)(C)c1nc2c3cc[nH]c(=O)c3c3cc(F)ccc3c2[nH]1: 92.8%
N#C/C(=C(/N)SC1C=CC=CC1)c1cccc(C(O)c2ccncc2)c1 (stereo not shown): 103%
C[C@@H](N)[C@H]1CC[C@H](C(=O)Nc2ccncc2)CC1: 78.9%
COc1cc2c(Nc3ccc(Br)cc3F)ncnc2cc1OCC1CCN(C)CC1: 24.4%
CNc1cc2c(Nc3cccc(Br)c3)ncnc2cn1: 91.2%
Nc1nc(Nc2ccc(S(N)(=O)=O)cc2)nn1C(=S)Nc1c(F)cccc1F: 81.4%
O=C1NC(=O)/C(=C/c2ccc3c(c2)OC(F)(F)O3)S1: 95.8%
FC(F)(F)c1ccc(/C=C/c2nc(COc3ccc(CCCCn4ccnn4)cc3)co2)cc1: 98.3%
NC(=O)c1ccc(-c2nc(-c3ccc4c(c3)OCCO4)c(-c3ccccn3)[nH]2)cc1: 97.6%
O=Nc1c(-c2c(O)[nH]c3ccccc23)[nH]c2ccccc12: 83.3%
O=C(O)/C=C/c1cc(Br)c(Br)c(Br)c1Br: 103%
Clc1ccc(Nc2nnc(Cc3ccncc3)c3ccccc23)cc1: 107%

Block 3
SMILES: CC(=O)N1CCC(c2ccc(C(=O)NC3=NCCN3)cc2C(F)(F)F)CC1
Concentration: 1 µM
Measurement: remaining binding
cAMP-dependent protein kinase catalytic subunit beta (PRKACB, Homo sapiens, UniProt P22694); cell-free assay, competition with immobilised ligand: 100%
Protein-tyrosine kinase 2-beta (PTK2B, Homo sapiens, UniProt Q14289); cell-free assay, competition with immobilised ligand: 100%
Mitogen-activated protein kinase 4 (MAPK4, Homo sapiens, UniProt P31152); cell-free assay, competition with immobilised ligand: 87%
Death-associated protein kinase 2 (DAPK2, Homo sapiens, UniProt Q9UIK4); cell-free assay, competition with immobilised ligand: 100%
Serine/threonine-protein kinase 24 (STK24, Homo sapiens, UniProt Q9Y6E0); cell-free assay, competition with immobilised ligand: 97%
Tyrosine-protein kinase ABL1, non-phosphorylated (ABL1, Homo sapiens, UniProt P00519, T315I); cell-free assay, competition with immobilised ligand: 87%
Tyrosine-protein kinase JAK1, JH2 (JAK1, Homo sapiens, UniProt P23458); cell-free assay, competition with immobilised ligand: 100%
Ankyrin repeat and protein kinase domain-containing protein 1 (ANKK1, Homo sapiens, UniProt Q8NFD2); cell-free assay, competition with immobilised ligand: 100%
Cyclin-dependent kinase 5 (CDK5, Homo sapiens, UniProt Q00535); cell-free assay, competition with immobilised ligand: 100%
Casein kinase I isoform gamma-1 (CSNK1G1, Homo sapiens, UniProt Q9HCP0); cell-free assay, competition with immobilised ligand: 95%
Mitotic checkpoint serine/threonine-protein kinase BUB1 (BUB1, Homo sapiens, UniProt O43683); cell-free assay, competition with immobilised ligand: 100%
Proto-oncogene tyrosine-protein kinase receptor Ret (RET, Homo sapiens, UniProt P07949, V804M); cell-free assay, competition with immobilised ligand: 100%
Phosphatidylinositol 4,5-bisphosphate 3-kinase catalytic subunit alpha isoform (PIK3CA, Homo sapiens, UniProt P42336, H1047L); cell-free assay, competition with immobilised ligand: 100%
Serine/threonine-protein kinase 35 (STK35, Homo sapiens, UniProt Q8TDR2); cell-free assay, competition with immobilised ligand: 100%
Receptor-type tyrosine-protein kinase FLT3 (FLT3, Homo sapiens, UniProt P36888, N841I); cell-free assay, competition with immobilised ligand: 94%
Glycogen synthase kinase-3 alpha (GSK3A, Homo sapiens, UniProt P49840); cell-free assay, competition with immobilised ligand: 78%
Phosphatidylinositol 4,5-bisphosphate 3-kinase catalytic subunit alpha isoform (PIK3CA, Homo sapiens, UniProt P42336, E545A); cell-free assay, competition with immobilised ligand: 100%
Epidermal growth factor receptor (EGFR, Homo sapiens, UniProt P00533, G719C); cell-free assay, competition with immobilised ligand: 100%
Cyclin-dependent kinase 4 (CDK4, Homo sapiens, UniProt P11802); cell-free assay, competition with immobilised ligand: 98%
Mitogen-activated protein kinase 6 (MAPK6, Homo sapiens, UniProt Q16659); cell-free assay, competition with immobilised ligand: 100%
Serine/threonine-protein kinase pim-1 (PIM1, Homo sapiens, UniProt P11309); cell-free assay, competition with immobilised ligand: 100%
Serine/threonine-protein kinase B-raf (BRAF, Homo sapiens, UniProt P15056); cell-free assay, competition with immobilised ligand: 100%
Phosphatidylinositol 4-phosphate 5-kinase type-1 alpha (PIP5K1A, Homo sapiens, UniProt Q99755); cell-free assay, competition with immobilised ligand: 100%
Tyrosine-protein kinase ABL1, phosphorylated (ABL1, Homo sapiens, UniProt P00519, F317I); binding: 94%
Serine/threonine-protein kinase Chk1 (CHEK1, Homo sapiens, UniProt O14757); cell-free assay, competition with immobilised ligand: 100%

Block 4
Cell line: Huh-7
Concentration: 10 µM
Time: 24 h
Measurement: viability
C#C[C@]1(OC(C)=O)CC[C@H]2[C@@H]3CCC4=CC(=NO)CC[C@@H]4[C@H]3CC[C@@]21CC (mixture of isomers): 86.1%
Cc1ccc(Cl)c(Nc2ccccc2C(=O)O)c1Cl: 96.7%
CCC[C@@H]1C[C@@H](C(=O)N[C@@H]([C@H]2O[C@H](SC)[C@H](O)[C@@H](O)[C@H]2O)[C@@H](C)O)N(C)C1: 101%
Cn1cnc2c1c(=O)[nH]c(=O)n2C: 101%
C[N+](C)(C)CCOC(N)=O: 102%
CN1CCc2cccc3c2[C@H]1Cc1ccc(O)c(O)c1-3: 75%
CCCCOC(=O)c1ccc(O)cc1: 101%
CN(C)/N=N/c1[nH]cnc1C(N)=O: 94.9%
OCCN1C[C@H](O)[C@@H](O)[C@H](O)[C@H]1CO: 96.8%
CC[C@H]1OC(=O)[C@H](C)[C@@H](O[C@H]2C[C@@](C)(OC)[C@@H](O)[C@H](C)O2)[C@H](C)[C@@H](O[C@@H]2O[C@H](C)C[C@H](N(C)C)[C@H]2O)[C@](C)(OC)C[C@@H](C)C(=O)[C@H](C)[C@@H](O)[C@]1(C)O: 103%
CCN1CCN(C(=O)N[C@@H](C(=O)N[C@@H]2C(=O)N3[C@@H]2SC(C)(C)[C@@H]3C(=O)O)c2ccccc2)C(=O)C1=O: 101%
CC(C)[N+](C)(CCOC(=O)C1c2ccccc2Oc2ccccc21)C(C)C: 106%

Some of these lines once more (block 3):
Mitotic checkpoint serine/threonine-protein kinase BUB1 (BUB1, Homo sapiens, UniProt O43683); cell-free assay, competition with immobilised ligand: 100%
cAMP-dependent protein kinase catalytic subunit beta (PRKACB, Homo sapiens, UniProt P22694); cell-free assay, competition with immobilised ligand: 100%
Epidermal growth factor receptor (EGFR, Homo sapiens, UniProt P00533, G719C); cell-free assay, competition with immobilised ligand: 100%
Death-associated protein kinase 2 (DAPK2, Homo sapiens, UniProt Q9UIK4); cell-free assay, competition with immobilised ligand: 100%
Serine/threonine-protein kinase Chk1 (CHEK1, Homo sapiens, UniProt O14757); cell-free assay, competition with immobilised ligand: 100%
